Experimental data gathered from unrelated publications.
Each line is one published result; not all experiments were run side by side. Values joined by “and” are separate records of one study, mostly repeats; a detail may differ. ± marks the error that the study gave.
IL1RL2: Interleukin-1 receptor-like 2 (IL1RL2, Homo sapiens, UniProt Q9HB29)
UniProt Q9HB29, sequence (whole entry, looked up): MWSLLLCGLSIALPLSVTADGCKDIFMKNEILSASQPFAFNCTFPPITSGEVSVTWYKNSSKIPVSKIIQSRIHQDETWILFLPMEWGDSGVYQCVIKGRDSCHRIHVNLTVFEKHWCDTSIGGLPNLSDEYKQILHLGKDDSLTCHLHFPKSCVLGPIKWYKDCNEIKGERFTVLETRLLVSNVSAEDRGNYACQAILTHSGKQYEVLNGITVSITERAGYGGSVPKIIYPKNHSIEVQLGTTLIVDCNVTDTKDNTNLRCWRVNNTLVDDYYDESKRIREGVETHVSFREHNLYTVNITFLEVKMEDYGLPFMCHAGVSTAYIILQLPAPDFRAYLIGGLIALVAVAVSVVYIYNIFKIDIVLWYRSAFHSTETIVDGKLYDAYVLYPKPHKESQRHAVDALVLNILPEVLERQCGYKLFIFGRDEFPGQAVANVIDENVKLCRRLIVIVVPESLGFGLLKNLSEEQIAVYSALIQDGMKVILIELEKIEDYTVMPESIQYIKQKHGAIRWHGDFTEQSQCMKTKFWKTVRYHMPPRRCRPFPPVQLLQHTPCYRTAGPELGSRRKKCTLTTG
CDK6 with cyclin D2: Cyclin-dependent kinase 6, with cyclin D2 (CDK6, Homo sapiens, UniProt Q00534)
UniProt P28482, sequence (whole entry, looked up): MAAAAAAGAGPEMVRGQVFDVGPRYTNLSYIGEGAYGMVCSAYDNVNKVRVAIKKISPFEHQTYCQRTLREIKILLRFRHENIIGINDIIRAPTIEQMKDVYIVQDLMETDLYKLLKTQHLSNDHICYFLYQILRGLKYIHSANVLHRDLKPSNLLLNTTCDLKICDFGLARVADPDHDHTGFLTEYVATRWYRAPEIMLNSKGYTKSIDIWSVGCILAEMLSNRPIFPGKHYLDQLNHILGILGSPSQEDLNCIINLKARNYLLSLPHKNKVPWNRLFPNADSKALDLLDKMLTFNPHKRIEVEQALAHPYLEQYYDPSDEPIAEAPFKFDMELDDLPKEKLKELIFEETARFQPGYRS
UniProt Q00534, sequence (whole entry, looked up): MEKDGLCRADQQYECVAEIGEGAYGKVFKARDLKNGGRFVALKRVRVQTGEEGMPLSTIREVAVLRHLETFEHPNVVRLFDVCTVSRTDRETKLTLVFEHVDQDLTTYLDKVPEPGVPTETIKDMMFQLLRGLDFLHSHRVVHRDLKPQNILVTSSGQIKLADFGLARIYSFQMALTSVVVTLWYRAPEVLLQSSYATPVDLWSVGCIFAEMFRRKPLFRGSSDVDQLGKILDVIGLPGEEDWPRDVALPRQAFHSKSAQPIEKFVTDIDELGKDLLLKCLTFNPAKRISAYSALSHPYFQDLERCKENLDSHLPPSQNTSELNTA
UniProt Q96KB5, sequence (whole entry, looked up): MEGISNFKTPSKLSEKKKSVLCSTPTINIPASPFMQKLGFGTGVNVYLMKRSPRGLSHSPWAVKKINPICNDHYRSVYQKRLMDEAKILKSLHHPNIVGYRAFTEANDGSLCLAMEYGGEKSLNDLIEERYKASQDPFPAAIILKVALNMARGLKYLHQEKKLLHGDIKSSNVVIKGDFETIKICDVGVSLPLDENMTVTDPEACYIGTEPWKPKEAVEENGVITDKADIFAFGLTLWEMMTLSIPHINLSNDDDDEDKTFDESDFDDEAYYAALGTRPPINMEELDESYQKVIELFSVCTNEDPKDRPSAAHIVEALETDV
UniProt P54292, sequence (whole entry, looked up): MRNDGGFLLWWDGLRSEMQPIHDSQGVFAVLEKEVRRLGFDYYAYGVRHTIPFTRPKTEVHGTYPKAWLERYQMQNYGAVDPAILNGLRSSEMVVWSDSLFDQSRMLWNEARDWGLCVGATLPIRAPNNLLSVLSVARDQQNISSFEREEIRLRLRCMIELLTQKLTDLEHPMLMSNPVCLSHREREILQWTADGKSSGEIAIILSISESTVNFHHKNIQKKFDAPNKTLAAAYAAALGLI
UniProt P43235, sequence (whole entry, looked up): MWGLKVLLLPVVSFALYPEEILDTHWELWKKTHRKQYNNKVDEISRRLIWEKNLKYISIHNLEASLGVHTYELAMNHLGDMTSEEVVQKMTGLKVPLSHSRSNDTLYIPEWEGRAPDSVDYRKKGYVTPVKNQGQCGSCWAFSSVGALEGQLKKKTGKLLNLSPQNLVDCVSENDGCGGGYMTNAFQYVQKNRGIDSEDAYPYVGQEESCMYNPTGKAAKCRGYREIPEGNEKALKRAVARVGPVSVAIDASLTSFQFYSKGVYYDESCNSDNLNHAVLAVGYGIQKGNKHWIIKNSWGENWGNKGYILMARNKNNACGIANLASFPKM
UniProt P07237, sequence (whole entry, looked up): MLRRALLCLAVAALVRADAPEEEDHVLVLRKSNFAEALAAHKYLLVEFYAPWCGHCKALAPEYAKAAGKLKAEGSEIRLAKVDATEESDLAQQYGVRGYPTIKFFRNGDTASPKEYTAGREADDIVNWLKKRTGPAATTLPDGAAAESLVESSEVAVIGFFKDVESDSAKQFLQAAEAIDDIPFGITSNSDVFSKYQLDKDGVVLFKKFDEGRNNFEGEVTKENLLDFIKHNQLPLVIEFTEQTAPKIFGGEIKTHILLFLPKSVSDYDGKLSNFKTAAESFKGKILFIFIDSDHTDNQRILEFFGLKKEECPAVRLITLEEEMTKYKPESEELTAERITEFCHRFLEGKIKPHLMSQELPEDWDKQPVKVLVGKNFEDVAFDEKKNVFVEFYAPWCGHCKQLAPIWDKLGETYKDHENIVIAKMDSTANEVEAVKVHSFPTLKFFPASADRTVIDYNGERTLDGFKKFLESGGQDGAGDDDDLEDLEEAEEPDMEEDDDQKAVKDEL
UniProt P08254, sequence (whole entry, looked up): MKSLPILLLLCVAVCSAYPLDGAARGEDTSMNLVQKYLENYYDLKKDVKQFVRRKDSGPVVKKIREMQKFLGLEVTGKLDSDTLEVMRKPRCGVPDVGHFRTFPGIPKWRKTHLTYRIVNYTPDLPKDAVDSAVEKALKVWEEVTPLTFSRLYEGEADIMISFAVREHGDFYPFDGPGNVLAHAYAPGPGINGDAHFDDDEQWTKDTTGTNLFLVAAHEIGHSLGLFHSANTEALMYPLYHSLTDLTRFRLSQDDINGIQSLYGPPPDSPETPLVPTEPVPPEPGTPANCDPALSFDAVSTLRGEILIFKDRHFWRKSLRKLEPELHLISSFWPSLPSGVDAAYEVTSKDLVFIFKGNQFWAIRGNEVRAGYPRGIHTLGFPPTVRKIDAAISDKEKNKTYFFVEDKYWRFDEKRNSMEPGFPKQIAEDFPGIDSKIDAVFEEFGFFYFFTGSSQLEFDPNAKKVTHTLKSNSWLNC
UniProt P45983, sequence (whole entry, looked up): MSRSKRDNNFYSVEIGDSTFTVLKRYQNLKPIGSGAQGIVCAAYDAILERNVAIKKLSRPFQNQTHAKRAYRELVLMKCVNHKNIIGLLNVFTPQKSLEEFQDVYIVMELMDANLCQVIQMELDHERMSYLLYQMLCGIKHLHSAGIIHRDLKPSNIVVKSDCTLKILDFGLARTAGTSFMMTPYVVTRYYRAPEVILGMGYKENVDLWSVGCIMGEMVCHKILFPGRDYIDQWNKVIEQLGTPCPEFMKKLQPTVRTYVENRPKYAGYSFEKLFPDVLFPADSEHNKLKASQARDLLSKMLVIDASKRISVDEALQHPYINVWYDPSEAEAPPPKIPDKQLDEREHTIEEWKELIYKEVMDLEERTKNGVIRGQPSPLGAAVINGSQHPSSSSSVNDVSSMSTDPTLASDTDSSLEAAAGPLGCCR

SMILES	tested on	test	test system	setting	how to read	quantity	result
COCC12C(=O)NC3C4(C(OC)CC1O)C1CC5(O)C(OC)C(O)C(OC(C)=O)(C1C5OC(=O)c1ccccc1)C3(O)C(OC)C24 (stereo not shown)	PBK (Homo sapiens, UniProt Q96KB5)	kinase activity, inhibitor, ProQinase kinase profiling	–	25 µM	reference: control	remaining activity	104% and 94%
COC(=O)[C@]1(C(C)C)C=C(C(=O)Nc2cccc(C(=O)Nc3ccc(Nc4nccc(-c5cccnc5)n4)c(C)c3)c2)C(=O)CC1	MAPK8 (Homo sapiens, UniProt P45983)	kinase activity, inhibitor	–	0.5487 µM, unit not given, added: 10 mM glutathione	reference: no inhibitor	remaining activity	0.616
CCCC(O)c1nn[nH]c1-c1ccc(O)c(OC)c1 (stereo not shown)	rhlR (Pseudomonas aeruginosa, UniProt P54292)	reporter gene, inhibitor, quorum sensing reporter strain	–	10 µM, 1.5 h	reference: DMSO	remaining activity	96%
COc1ccccc1-c1ccncc1C(=O)Nc1nnc(OCc2ccc(Cl)cc2)s1	DNA polymerase theta, helicase domain (POLQ, Homo sapiens, UniProt O75417)	ATPase activity, ADP-Glo	–	0.03 µM, added: ATP 100 µM	–	remaining activity	52%
CC(C)[C@@H]1NC(=O)[C@H](Cc2ccccc2)NC(=O)CSC[C@@H](C(N)=O)NC(=O)[C@H](CCC(=O)O)NC(=O)[C@H](CO)NC(=O)[C@H](Cc2c[nH]c3ccccc23)NC(=O)[C@H](C(C)C)NC(=O)[C@H](C(C)C)NC(=O)[C@H](Cc2ccc(O)cc2)NC(=O)[C@H](CC(=O)O)NC(=O)[C@H](Cc2c[nH]c3ccccc23)NC(=O)[C@H](Cc2ccc(O)cc2)NC(=O)[C@H](Cc2c[nH]c3ccccc23)NC(=O)[C@H](CCC(=O)O)NC1=O	IL1RL2	IL-8 release, antagonist	A-431	20 µM, 18 h, added: IL-36 10 ng/mL	reference: untreated	remaining activity	8.76%
O=C=[N][Ru-4]123([n]4c5ccc(O)cc5c5c6c(c7cc(F)c[n+]1c7c54)C(=O)NC6=O)[S+]1CC[S+]2CC[S+]3CC1 (stereo not shown)	AMPK (rat)	kinase activity, inhibitor	–	100 nM, added: 10 µM ATP	–	remaining activity	93%
N#Cc1cnc2sc(C(=O)O)cc2c1N1CCc2[nH]nc(C(=O)N[C@@H](CC(=O)NCCOCCN3CCOCC3)c3cccc(Br)c3)c2C1	IL1RL2	SEAP reporter gene, antagonist	HEK-Blue IL-36R cells	1.23 µM, 6 h, added: IL-36β 0.003 ng/mL	reference: untreated	remaining activity	99%
COc1ccc(CN2CCCC(N3CCN(c4cccc(Cl)c4)CC3)C2)cc1OC (stereo not shown)	Trypanosoma cruzi	reporter mRNA translation, inhibitor, refers to: capped polyadenylated Renilla luciferase mRNA	cell-free extract	concentration not given	reference: positive over negative control	translation activity	107% and 101% and 83.2% and 104%
Cn1nnnc1Sc1c2c(c(C#N)c3nc4ccccc4n13)CCCC2	P4HB (Homo sapiens, UniProt P07237)	insulin turbidity	–	100 µM	–	remaining activity	92.2 ± 6.1%
COC(=O)c1cc2cc3c(cc2oc1=O)N(CC(=O)NC(Cc1cccc(Cl)c1)C(=O)NCC=CS(=O)(=O)c1ccccc1)CCC3 (stereo not shown)	Cathepsin K (CTSK, Homo sapiens, UniProt P43235)	enzyme activity, inhibitor, fluorescence	–	5 µM	–	remaining activity	43%
COC(=O)[C@@]1(C)C=C(C(=O)Nc2cccc(C(=O)Nc3ccc(Nc4nccc(-c5cccnc5)n4)c(C)c3)c2)C(=O)CC1	MAPK1 (Homo sapiens, UniProt P28482)	enzyme activity, inhibitor	–	133.3 µM, unit not given	reference: vehicle	remaining activity	0.47 and 0.382 and 0.476
C[C@](C(=O)NC1CCOCC1)(c1cncnc1)N(C(=O)[C@H](F)Cl)c1ccc(OC(F)(F)Cl)cc1	Stromelysin-1 (MMP3, Homo sapiens, UniProt P08254)	enzyme activity, inhibitor	–	10 µM	–	remaining activity	100%
CCN1CCSC1=CC=CC1=[N+](CC)CCS1	Trypanosoma cruzi	reporter mRNA translation, inhibitor, refers to: Renilla luciferase mRNA	cell-free extract	concentration not given, test 2	reference: positive over negative control	translation activity	84.6%
CC(C)[C@@H]1NC(=O)[C@H](Cc2ccccc2)NC(=O)CSC[C@@H](C(N)=O)NC(=O)[C@H](CCC(=O)O)NC(=O)[C@H](CO)NC(=O)[C@H](Cc2c[nH]c3cccc(Cl)c23)NC(=O)[C@H](C2CCCCC2)NC(=O)[C@H](C(C)C)NC(=O)[C@H](Cc2ccc(O)cc2)NC(=O)[C@H](CC(=O)O)NC(=O)[C@H](Cc2c[nH]c3ccccc23)NC(=O)[C@H](Cc2ccc(N)nc2)NC(=O)[C@H](Cc2c[nH]c3ccc(Cl)cc23)NC(=O)[C@H](CCC(=O)O)NC1=O	IL1RL2	reporter gene (SEAP), inhibitor, HEK-Blue IL-36R reporter	HEK-Blue IL-36R cells	0.0017 µM, 6 h, added: IL-36β 100 ng/mL	–	remaining activity	89.9%
CN1C[C@@H](c2c[nH]c3cc(Br)ccc23)NC[C@@H]1c1c[nH]c2cc(Br)ccc12	CDK6 with cyclin D2	enzyme activity, inhibitor	–	10 µM	–	remaining activity	96%
Nc1ncc(-c2cc(-c3cnn(CC(F)(F)F)c3)ncc2F)nc1C(=O)NC1CNCC(F)C1 (stereo not shown)	CDK6 with cyclin D2	enzyme activity	–	1 µM	reference: DMSO control	remaining activity	86.2%

Repeated from above:
SMILES	tested on	test	test system	setting	how to read	quantity	result
Nc1ncc(-c2cc(-c3cnn(CC(F)(F)F)c3)ncc2F)nc1C(=O)NC1CNCC(F)C1 (stereo not shown)	CDK6 with cyclin D2	enzyme activity	–	1 µM	reference: DMSO control	remaining activity	86.2%
COC(=O)[C@@]1(C)C=C(C(=O)Nc2cccc(C(=O)Nc3ccc(Nc4nccc(-c5cccnc5)n4)c(C)c3)c2)C(=O)CC1	MAPK1 (Homo sapiens, UniProt P28482)	enzyme activity, inhibitor	–	133.3 µM, unit not given	reference: vehicle	remaining activity	0.47 and 0.382 and 0.476
